Published values gathered from unrelated publications.
Compare with care: the assays were run in different laboratories. Several values in a cell are separate wells, animals, samples, runs or records. Numbers after ± are the reported error.

| Structure (SMILES) | organism | test | test system | setting | scale | endpoint | value |
| --- | --- | --- | --- | --- | --- | --- | --- |
| CCN(CC)CC#CCNc1ccnc2cc(Cl)ccc12 | Salmonella typhimurium | mini-Ames test | TA1535 | 125.0 µg/well, without S9 | – | revertants | 2 revertants/well and 0 revertants/well |
| CC(C)OCCOCc1ccc(OCC(O)CN(N=O)C(C)C)cc1 (stereo not drawn) | Escherichia coli | Ames test | WP2 uvrA | 5000 µg/plate, 30 % rat S9 | reference: solvent control | revertant fold increase | 0.8 fold |
| CCCCCCC(CSS(=O)(=O)O)NCC(C)C (stereo not drawn) | Schistosoma mansoni | perfusion day 62 | infected Swiss Webster mice | 100 mg/kg | – | body weight | 29.8 g and 31.2 g and 34 g |
| Nc1nc2cc(C(=O)c3ccc(F)cc3)ccc2[nH]1 | Salmonella typhimurium | Ames preincubation test | TA100 | 156.0 µg per plate, 3 days, without S9, lawn reduction | – | revertants | 97 revertants per plate |
| CC[C@H](C)NCC(SS(=O)(=O)O)c1ccccc1 (stereo partly drawn) | Schistosoma mansoni | perfusion day 62 | infected Swiss Webster mice | 100 mg/kg | – | body weight | 38.6 g and 38 g |
| COC(=O)Nc1nc2cc(C(O)c3ccc(F)cc3)ccc2[nH]1 (stereo not drawn) | Salmonella typhimurium | Ames preincubation test | TA98 | 109.4 µg/plate, without S9 | – | revertants | 29.3 revertants/plate |
| CCCCCC[C@H](CSS(=O)(=O)O)NC1CCCCC1 | Schistosoma mansoni | perfusion day 57 | infected Swiss Webster mice | 100 mg/kg | – | body weight | 30.7 g and 29.5 g |
| O=C1C2CC3CC1CC(C(=O)N1CCN(c4ccc([N+](=O)[O-])c5ncccc45)CC1)(C3)C2 | Salmonella typhimurium | Ames test | TA100 | 0.31 µg/well, without S9 | reference: vehicle | revertant fold increase | 0.7 |
| O=C1NC2(CC2)COc2ncc(F)cc2[C@H]2COCCN2c2ccn3ncc1c3n2 | Salmonella typhimurium | Ames test | TA100 | 1500 µg/plate, 48 h, together with: without S9 | – | revertant colonies | 81 ± 8 revertants/plate |
